Results from different studies.
Every numbered part comes from another study and shows a few of its results, in no order. “And” joins repeats or separate records; there may be more than shown.

Set 1
Cell line: HaCaT
Tested at: 100 µM
Time: 18 h
Measurement: viability
SMILES = CN1C(=O)COc2c(C(=O)NC3CN4CCC3CC4)cc(Cl)cc21 (centres unmarked); result = 99.4%
SMILES = C[C@]12CC[C@H]3[C@@H](CCC4=CC(=O)CC[C@@]43C)[C@@H]1CC[C@@H]2OC(=O)CCc1ccccc1; result = 82.2%
SMILES = Cl[C@H]1[C@H](Cl)[C@@H](Cl)[C@@H](Cl)[C@H](Cl)[C@H]1Cl; result = 22%

Set 2
SMILES: CC[C@H](C)c1nc2cc(Nc3ccnc4ccc(S(=O)(=O)C(C)C)cc34)ccc2s1.Cl
Cell line: HT-29
Read-out: necroptosis protection
Method: CCK-8
Added: TNF-α SMAC mimetic zVAD
Measurement: viability
tested at = 2.5 µM; result = 38.2% and 27.3% and 40.4% and 76.8% and 28.9%
tested at = 10 µM; result = 77.5% and 77.4% and 92.5% and 95.3% and 76.6%
tested at = 0.313 µM; result = 18.8% and 12.1% and 12.4% and 19.3%

Set 3
Target: Beta-1 adrenergic receptor (ADRB1, Homo sapiens, UniProt P08588)
UniProt P08588, sequence (whole entry, looked up): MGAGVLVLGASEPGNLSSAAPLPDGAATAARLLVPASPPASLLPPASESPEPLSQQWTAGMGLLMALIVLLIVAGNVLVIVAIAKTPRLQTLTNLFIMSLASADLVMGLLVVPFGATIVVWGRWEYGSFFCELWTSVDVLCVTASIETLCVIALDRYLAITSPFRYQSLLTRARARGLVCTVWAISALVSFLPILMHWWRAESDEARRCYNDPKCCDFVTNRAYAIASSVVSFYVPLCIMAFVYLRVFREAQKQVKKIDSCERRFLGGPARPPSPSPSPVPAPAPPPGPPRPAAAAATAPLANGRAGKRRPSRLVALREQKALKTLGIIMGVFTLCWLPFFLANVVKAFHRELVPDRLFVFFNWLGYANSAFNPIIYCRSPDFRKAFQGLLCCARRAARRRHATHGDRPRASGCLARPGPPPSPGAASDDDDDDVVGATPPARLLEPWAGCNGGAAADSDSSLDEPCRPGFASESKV
Action: agonist
Measurement: EC50
SMILES = Clc1ccccc1COc1cccc(N2CCNCC2)c1; result = ≥ 100 µM
SMILES = COc1ccc2[nH]cc(C3=CCN(CC(=O)N(C)Cc4ccccc4)CC3)c2c1; result = ≥ 100 µM
SMILES = Clc1cccc(N2CCNCC2)c1Cl; result = ≥ 100 µM

Further values, each from its own experiment
Target: Bromodomain-containing protein 4, BD1 (BRD4, Homo sapiens, UniProt O60885)
Read-out: acetyl-histone H4 peptide binding
Method: AlphaScreen displacement
Tested at: 50 µM
SMILES = O=C1NC(=O)N(c2ccccc2)C(=O)C1=CNc1ccc(F)cc1; inhibition = 3.85%
SMILES = CC(=O)c1cccc(NC=C2C(=O)NC(=O)N(c3ccccc3)C2=O)c1; inhibition = 9%
